Results gathered from unrelated publications.
Each numbered part is a random draw from the data of one study; scales do not carry over between parts. Substitutions count along the parent as printed.

Series 1
Target: Histone acetyltransferase KAT6A, winged helix 2, GST fusion (KAT6A, Homo sapiens, UniProt Q92794, residues 85-181)
Technique: protein binding microarray
Molecule type: double-stranded DNA, one strand shown
Medium: in vitro
Tested at: not given
Notes: 8-mer, flanks averaged, mean of 2 arrays, mostly near background
Relative to: not given
Direction: higher = stronger binding
Target sequence (chain): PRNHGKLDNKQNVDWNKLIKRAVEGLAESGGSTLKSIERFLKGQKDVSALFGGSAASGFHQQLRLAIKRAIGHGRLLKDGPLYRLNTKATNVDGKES
Oligonucleotide	E-score
ACTACGCT	-0.221
CGCTCAGA	0.0546
TAGCAGGA	0.0578
GCTAACCC	-0.0173
ATAAGAGG	-0.0179

Series 2
Target: Interferon regulatory factor 7, full length, phosphomimetic (IRF7, Homo sapiens, UniProt Q92985, residues 1-503, S471D/S472D/S475D/S476D/S477D/S483D/S484D/S487D)
UniProt Q92985, sequence (whole entry, unmodified, looked up): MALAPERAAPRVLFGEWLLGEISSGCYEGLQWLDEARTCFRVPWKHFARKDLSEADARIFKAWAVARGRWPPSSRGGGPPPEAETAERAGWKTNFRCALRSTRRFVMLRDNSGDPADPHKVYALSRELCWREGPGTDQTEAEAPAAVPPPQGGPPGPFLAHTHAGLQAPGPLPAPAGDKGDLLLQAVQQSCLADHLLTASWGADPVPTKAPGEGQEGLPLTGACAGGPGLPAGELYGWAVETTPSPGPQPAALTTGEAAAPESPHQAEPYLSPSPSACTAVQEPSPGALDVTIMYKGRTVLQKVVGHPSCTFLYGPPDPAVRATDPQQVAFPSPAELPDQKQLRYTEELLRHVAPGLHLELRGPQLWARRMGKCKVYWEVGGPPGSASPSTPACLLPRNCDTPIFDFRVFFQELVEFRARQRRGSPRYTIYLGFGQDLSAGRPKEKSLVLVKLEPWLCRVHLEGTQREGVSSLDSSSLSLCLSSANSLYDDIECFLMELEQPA
Technique: protein-binding microarray
Molecule type: double-stranded DNA, one strand shown
Medium: in vitro
Tested at: 2200 nM top
Notes: 60-bp whole probe
Together with: salmon DNA 0.4 mg/ml
Relative to: random background probes
Direction: higher = stronger binding
Constant ends, left off below: GCCTAGCAC … GTCTTGATTCGCTTGACGCTGCTG
Oligonucleotide	fitted relative affinity [z-score]
TTAGGTTTAGGGTATCGGTTAGTGCTA	0.367
TTAGGTTTCAGGTTTCGGTTAGTGCTA	6.78
GACGGTATTGACACTGGGGACGTGCTA	-0.127
ACCTGTATATCTTCAGCGGGGTGCTAG	0.641
CAGAGCCTCAGTCCTCACACAGTGCTA	0.0363
TTAGATATCGGGACTGAATTAGTGCTA	-0.333

Series 3
Target: CCNF, cyclin fold, Cln2 fusion (human)
Technique: yeast growth competition, sequencing
Medium: yeast
Notes: strong parent motif
Relative to: not given
Direction: higher = stronger binding
Parent: ITGB3BP docking peptide (human); MPVKRSLKLDGLL; partner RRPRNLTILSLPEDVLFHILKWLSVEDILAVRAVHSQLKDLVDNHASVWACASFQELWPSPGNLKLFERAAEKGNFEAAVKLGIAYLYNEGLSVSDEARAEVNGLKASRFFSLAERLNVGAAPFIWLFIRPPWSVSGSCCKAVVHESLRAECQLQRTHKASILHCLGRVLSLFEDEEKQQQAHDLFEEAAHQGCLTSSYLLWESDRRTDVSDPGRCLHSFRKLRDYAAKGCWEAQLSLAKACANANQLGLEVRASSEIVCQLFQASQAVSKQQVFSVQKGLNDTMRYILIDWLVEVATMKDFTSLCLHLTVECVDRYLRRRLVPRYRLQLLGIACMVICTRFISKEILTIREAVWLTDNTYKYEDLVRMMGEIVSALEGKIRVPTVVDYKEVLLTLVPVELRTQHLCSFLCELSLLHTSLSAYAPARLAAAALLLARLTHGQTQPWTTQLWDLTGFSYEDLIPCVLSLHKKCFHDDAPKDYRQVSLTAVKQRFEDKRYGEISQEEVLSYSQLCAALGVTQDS
Variant	normalised enrichment score
L12A	4.05
L9A	0.934
K4A	5.09

Single results of other studies
Substance	target	assay	system	setting	how to read	measurement	value
PhoQ, residues 284 288 289 292 302 303 ALVSVA	PhoP, residues 12 14 15 18 19 SQCLL (Escherichia coli, UniProt P23836)	Sort-seq, item: YFP reporter	E. coli	PhoQ-PhoP variant library, together with: 10 µM Mg2+	relative to: high Mg2+ state, higher = stronger signaling	fold induction	14.6

For quick reference, copied from above (series 2):
Oligonucleotide	fitted relative affinity [z-score]
TTAGGTTTAGGGTATCGGTTAGTGCTA	0.367
